Experimental data from different studies.
Each line is one published result; not all experiments were run side by side. ± marks the error that the study gave.
rep main protease: Replicase polyprotein 1ab, main protease (rep, Severe acute respiratory syndrome coronavirus 2, UniProt P0DTD1)
gag-pol K653R reverse transcriptase: Gag-Pol polyprotein, reverse transcriptase (gag-pol, Human immunodeficiency virus type 1 group M subtype B, UniProt P04585, K653R)
B1: cytochrome c peroxidase H52Q; sequence looked up; chain TTPLVHVASVEKGRSYEDFQKVYNAIALKLREDDEYDNYIGYGPVLVRLAWQTSGTWDKHDNTGGSYGGTYRFKKEFNDPSNAGLQNGFKFLEPIHKEFPWISSGDLFSLGGVTAVQEMQGPKIPWRCGRVDTPEDTTPDNGRLPDADKDADYVRTFFQRLNMNDREVVALMGAHALGKTHLKNSGYEGPWGAANNVFTNEFYLNLLNEDWKLEKNDANNEQWDSKSGYMMLPTDYSLIQDPKYLSIVKEYANDQDKFFKDFSKAFEKLLENGITFPKDAPSPFIFKTLEEQGL

Substance	target	test	test system	conditions	how to read	endpoint	value
O=C(NCC[C@H]1CCCN(C(=O)c2ccc(-c3cnc[nH]3)cc2)C1)c1ccc2n[nH]c(=O)n2c1	rep main protease	enzyme activity, inhibitor	–	5 µM, mean of runs	–	inhibition	10.5%
Cc1cn([C@H]2C[C@H](N=[N+]=[N-])[C@@H](COP(=O)(O)OP(=O)(O)OP(=O)(O)O)O2)c(=O)[nH]c1=O	Gag-Pol polyprotein, reverse transcriptase (gag-pol, Human immunodeficiency virus type 1 group M subtype B, UniProt P04585, K653A)	reverse transcriptase activity, inhibitor	HIV-1	–	reference: K66A mutant over wild type	fold resistance	3 fold
CCOC(=O)[C@H](CCc1ccccc1)N[C@H]1CS[C@H](c2cccs2)CN(CC(=O)O)C1=O	rep main protease	viral replication, mKate2 reporter	SARS-CoV-2	20 µM	–	inhibition	0.0733%
Nc1nc2c(ncn2[C@H]2C[C@H](O)[C@@H](COP(=O)(O)OP(=O)(O)OP(=O)(O)O)O2)c(=O)[nH]1	gag-pol K653R reverse transcriptase	nucleotide misinsertion, steady-state kinetics	–	K66R mutant RT, with: opposite template T	–	Km	14.2 ± 8.07 µM
CCN(CC)c1nc(C)cc(OP(=S)(OC)OC)n1	uncharacterized protein (Anopheles coluzzii, UniProt A0A6E8VQK1)	enzyme activity, inhibitor	Sf9 cell homogenate	0.02326 µM, 0.1667 h, with: α-naphthyl acetate substrate	reference: no inhibitor	remaining activity	104%
Cc1cc(C(=O)N2[C@@H]3CCC[C@H]2CC(NC(=O)c2cc[nH]c(=O)c2)C3)cc(=O)[nH]1 (stereo partly drawn)	rep main protease	enzyme activity, inhibitor	–	5 µM, mean of runs	–	inhibition	13.2%
O=C(O)/C(S)=C/c1c[nH]c2ccc(F)cc12	rep main protease	viral replication, Gluc reporter	SARS-CoV-2	20 µM	–	inhibition	3.33%
O=C1CC[C@@H](CCC(=O)N2CCCC[C@@H](C3CN(C(=O)c4cnc5n[nH]nc5c4)C3)C2)CN1	rep main protease	enzyme activity, inhibitor	–	5 µM	–	inhibition	11.5%
Nc1ncnc2c1ncn2[C@H]1C[C@H](O)[C@@H](COP(=O)(O)OP(=O)(O)OP(=O)(O)O)O1	Gag-Pol polyprotein, reverse transcriptase (gag-pol, Human immunodeficiency virus type 1 group M subtype B, UniProt P04585, K653N)	substrate	–	K66N mutant, with: G:A mismatched primer template	–	kcat	0.0133 ± 0.00383 s⁻¹
B1 (cytochrome c peroxidase H52Q)	haem protein variant	–	–	pH 6.0, ionic strength 0.10 M, slow phase	–	cyanide binding rate constant	8.4 ± 2.5 M⁻¹ s⁻¹
CCOC(=O)[C@H](Cc1ccccc1)NC(=O)c1cc(Cl)c(OCCN2CCN(C)CC2)c(Cl)c1O.Cl.Cl	rep main protease	viral replication, Gluc reporter	SARS-CoV-2	20 µM	–	inhibition	-1.09%
CSCC[C@H](NC(=O)[C@H](CCCNC(=N)N)NC(=O)[C@H](Cc1ccccc1)NC(=O)[C@H](CS)NC(=O)[C@H](C)NC(=O)[C@@H](NC(=O)[C@@H](NC(=O)[C@H](C)NC(=O)[C@H](CCCNC(=N)N)NC(=O)[C@H](CCCNC(=N)N)NC(=O)[C@H](CCCNC(=N)N)NC(=O)[C@H](CCC(N)=O)NC(=O)[C@H](CCCCN)NC(=O)[C@H](CO)NC(=O)[C@H](CC(C)C)NC(=O)[C@H](CC(C)C)NC(=O)[C@H](CCCCN)NC(=O)[C@H](Cc1c[nH]cn1)NC(=O)[C@H](Cc1c[nH]c2ccccc12)NC(=O)[C@@H](NC(=O)[C@H](C)NC(=O)[C@H](CCCCN)NC(=O)[C@H](CCCCN)NC(=O)[C@H](CO)NC(=O)[C@H](CCCCN)NC(C)=O)C(C)C)C(C)C)C(C)C)C(=O)N[C@H](C(=O)N1CCC[C@H]1C(=O)N[C@@H](CC(C)C)C(=O)N[C@@H](Cc1ccc(O)cc1)C(=O)N[C@@H](CC(N)=O)C(N)=O)[C@@H](C)O	calmodulin 1-148 sites III and IV	calcium binding, Tyr fluorescence titration	–	12 µM, pH 7.4, 22 °C, with: 6 µM calmodulin	–	apparent ΔG2	-18.85 ± 0.14 kcal/mol
CC[C@H](C)[C@H](NC(=O)OCc1ccccc1)C(=O)N[C@@H](CCC(=O)OC)C(=O)N[C@H](C(=O)N[C@@H](CC(=O)OC)C(=O)CF)[C@@H](C)O	rep main protease	reporter gene (Gaussia luciferase), inhibitor	–	20 µM	–	inhibition	-0.408%
O=C(NC[C@H](NC(=O)c1cnoc1-c1ccccc1)c1ccc2ccccc2c1)c1cn[nH]n1	rep main protease	enzyme activity, inhibitor	–	5 µM, run 1	–	inhibition	7.2%
O=C(NN1C(=O)[C@@H]2[C@@H]3C=C[C@@H]([C@H]4C[C@@H]34)[C@@H]2C1=O)c1ccc(C(F)(F)F)cc1	rep main protease	reporter gene (mKate2), inhibitor	–	20 µM	–	inhibition	-0.0526%
Cc1cncc(C(=O)NC[C@H]2c3ccccc3CCN2C(=O)c2cccn3nnnc23)c1	rep main protease	enzyme activity, inhibitor	–	5 µM, run 1	–	inhibition	31.1%
Cc1cn([C@H]2C[C@H](O)[C@@H](COP(=O)(O)OP(=O)(O)OP(=O)(O)O)O2)c(=O)[nH]c1=O	gag-pol K653R reverse transcriptase	nucleotide misinsertion, steady-state kinetics	–	K66R mutant RT, with: opposite template T	–	Km	888 ± 235 µM
O=C(NC[C@H]1Cc2ccccc2CN1C(=O)c1n[nH]c(=O)[nH]c1=O)c1cccc2ccncc12	rep main protease	enzyme activity, inhibitor	–	5 µM, run 2	–	inhibition	9.3%
CCC[C@H](N[C@H]1CCc2cc(F)cc(F)c2C1)C(=O)Nc1cn(C(C)(C)CNCC(C)(C)C)cn1	rep main protease	reporter gene (mKate2), inhibitor	–	20 µM	–	inhibition	-0.0529%
O=C(N[C@@H](CNC(=O)[C@@H]1CCCc2[nH]cnc21)c1ccc2ccccc2c1)c1cncc(F)c1	rep main protease	enzyme activity, inhibitor	–	5 µM, run 1	–	inhibition	13.1%
COC(=O)C=Cc1ccccc1	rep main protease	reporter gene (Gaussia luciferase), inhibitor	–	20 µM	–	inhibition	2.8%

Some of these lines once more:
Substance	target	test	test system	conditions	how to read	endpoint	value
Nc1ncnc2c1ncn2[C@H]1C[C@H](O)[C@@H](COP(=O)(O)OP(=O)(O)OP(=O)(O)O)O1	Gag-Pol polyprotein, reverse transcriptase (gag-pol, Human immunodeficiency virus type 1 group M subtype B, UniProt P04585, K653N)	substrate	–	K66N mutant, with: G:A mismatched primer template	–	kcat	0.0133 ± 0.00383 s⁻¹
CCOC(=O)[C@H](Cc1ccccc1)NC(=O)c1cc(Cl)c(OCCN2CCN(C)CC2)c(Cl)c1O.Cl.Cl	rep main protease	viral replication, Gluc reporter	SARS-CoV-2	20 µM	–	inhibition	-1.09%
O=C(NC[C@H](NC(=O)c1cnoc1-c1ccccc1)c1ccc2ccccc2c1)c1cn[nH]n1	rep main protease	enzyme activity, inhibitor	–	5 µM, run 1	–	inhibition	7.2%
